Measurements collected from several papers.
Numbered parts are unrelated; each lists some results of a single study. Positions count from the first letter of the parent shown.

Study 1 — method: RNA Bind-n-Seq; molecule type: RNA; sample: in vitro; concentration: 365 nM; reference: no-protein control; reading: higher = stronger binding; quantity: RBNS enrichment (R)
Target: RNA binding protein fox-1 homolog 2, RRM domain, GST-SBP tag (RBFOX2, Homo sapiens, UniProt O43251-10, residues 100-194)
Notes: natural RNA segment, single round, ends assumed
All sequences stand within: GGGAGUUCUACAGUCCGACGAUC … UGGAAUUCUCGGGUGCCAA
Construct (chain): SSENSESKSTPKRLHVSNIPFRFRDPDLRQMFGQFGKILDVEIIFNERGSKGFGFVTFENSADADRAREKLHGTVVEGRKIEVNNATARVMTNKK
UAUGAGAAAGGUAAGUCCAUUUUCCCCUUCAGGUCCUCAGUGGAUUACUUAACCACUGCUGUCCCUCGGUCCCUUUUUCCUAAACGGGUUUAGUUCUGUCUUUUUUCUCC: 0.315
GGGAGUGUGCUCCAGCUGCCCCCGACUUGUUUGGGUGAUCUCUCUGGGGCGGCACGUUUUACUCUUUAUCUCGCUUUCGGAGGUGCUUUCGCAGGAGCAUUAACCUCCUG: 0.554
UUCACUGUGGUCUUUUCCAGAUAAGUUACUUCUUUUGCAUCUGAAAUGGGAUGUGGCCAUGGCAUUGCUAGAAUAUGGUGUGCUUUUAGAACAAAUGUGGCCUUCUCAUG: 1.55
GGAAAGGGCAUGAAGUAAAGCGUUGCCUGAAUGCUGUGUGGUGUUUUGUUUCUUCCUCCUUCCUAUGAGGUUUUCUACUUCUCAAUUAAAAUAAUUUCAAAAUAAACACU: 0.422
ACAGUGUAGGGUAAAGAACAGAAUUGGAACAGAACUAAGGCUGUUGCUUUCAUAGCAUCUCAGACUACUUGGAACUCCAAGGACUGCCUAACUAAAGUACUUUCACAAAC: 0.22
GAAACAAGUCUAGUCUUCUGGUUUUCUAGCCCCUCUGGAUUCCCUUUUGACUCUUCCGUGCAUCCCAGAUAAUGGAGAAUGUAUCAGCCAGCCUUCCCCACCAAGUCUAA: 0.542
GCCAUUUCCCUUUGAUGCUUUGGUGGCCUUGCCCCGCUCUGCAGCACAGACAGGCCAGAUGCAUUUGUCCUUUGCCUAGCUACUCCCCAGGUAGAGAGUGCUCCUGGUGG: 0.434
GGGUUUUAGGCUUGCCUGGGAAGCUACAGUCAAGGUGCAUUCUGGGAGCUACUCAUCCCCAGCAGUUAGCGCUCCGCCCCGGUUGACUCUUGAUGGCUUUGCGGAGCCCC: 0.233

Study 2 — method: RNA Bind-n-Seq; molecule type: RNA; sample: in vitro; concentration: 200 nM; notes: whole 134-nt RNA, ends assumed; with: 150 mM KCl; reference: input library; reading: higher = stronger binding; quantity: log2 enrichment
Target: Fragile X messenger ribonucleoprotein 1, C-terminal low-complexity region (Fmr1, Mus musculus, UniProt P35922)
All sequences stand within: GGGAGUUCUACAGUCCGACGAUC … UGGAAUUCUCGGGUGUCAAGG
AGUCCUGUGCUACACAUCGUAUGUACCGAAUCGGGUUUUUGGGAGGGAAAAAAAGGGAAAGUAUUAUGUUACGCCGUUCGGAUCUGCACU: 0.219
CCUGUGCUACACAUCGUAUGUACCGAAUCGGGAAAAAAAGGAAAAAAAGGAAAAAAAGGGGAAAGUAUUAUGUUACGCCGUUCGGAUCUG: -1.09
UCCUGUGCUACACAUCGUAUGUACCGAAUCGGGUUUUUGGGUUUUUGGGUUUUUUUGGGAAAGUAUUAUGUUACGCCGUUCGGAUCUGCA: 0.304
AGUCCUGUGCUACACAUCGUAUGUACCGAAUCAAACCCAAAUUUUUAAACCCCCAAAAAAGUAUUAUGUUACGCCGUUCGGAUCUGCACU: -0.182
CUCAAGUCCUGUGCUACACAUCGUAUGUACCGAAUCGGUUUGGUGGAAAAAGGAAAGUAUUAUGUUACGCCGUUCGGAUCUGCACUUCCA: -0.147
UGUUCCUGUUGAUGAAAAUCUUUUCACUGGAGAGGAUUUGGAUGAACUAGAAGAAGAAUUAAAUACACUUGAUUUAGAAGAAUGACACCA: -0.362
AAGUCCUGUGCUACACAUCGUAUGUACCGAAUCGGAAAAAAAGGAAAAAAAGGAGGAAAGUAUUAUGUUACGCCGUUCGGAUCUGCACUU: -0.83
ACCAUGCAGGUGGGCAUCUUUGGGCAGUGGGGCAAGGGGGGGAUAGGGAGGGGGGUAACACUUUGGGAACAGGUGGUCCCAGGUCGUUUC: 0.864
UGGCCCUGGUGGCAUGCGGGGAGGAAGAGGUGGCCUCAUGGAUCGUGGUGGUCCCGGUGGAAUGUUCAGAGGUGGCCGUGGUGGAAACAG: 0.086

Study 3 — target: CCNB3, cyclin fold, Cln2 fusion (human); method: yeast growth competition, sequencing; sample: yeast; notes: weak parent motif; reference: not given; reading: higher = stronger binding; quantity: normalised enrichment score
Starting sequence: INSM1 docking peptide (human); PKAIRKLHFEDEV
PKAIRKLHFEWEV [D11W]: 0.246
PKAINKLHFEDEV [R5N]: -0.23
PKAIRKLHFFDEV [E10F]: 0.47
PKAIRKIHFEDEV [L7I]: 0.434
PKAIRYLHFEDEV [K6Y]: 0.337
PKAIRKLHFMDEV [E10M]: 0.327
PKAIRKLHREDEV [F9R]: 0.0716
PKAIRKLHFEQEV [D11Q]: 0.565
PKAISKLHFEDEV [R5S]: 0.189
PHAIRKLHFEDEV [K2H]: 0.645
PKAVRKLHFEDEV [I4V]: 0.255

Other studies, line by line
PhoQ, residues 284 288 289 292 302 303 SIHMAM
fold induction (PhoP, residues 12 14 15 18 19 NHFRA (Escherichia coli, UniProt P23836); Sort-seq, item: YFP reporter; E. coli; PhoQ-PhoP variant library, with: 10 µM Mg2+; reference: high Mg2+ state, higher = stronger signaling): 1.36

For quick reference, copied from above (study 3):
PKAIRKLHFEQEV [D11Q]: 0.565
PKAIRYLHFEDEV [K6Y]: 0.337
PKAIRKLHFMDEV [E10M]: 0.327
PKAISKLHFEDEV [R5S]: 0.189
